Results pooled from the literature.
Every numbered part comes from another study and shows a few of its results, in no order.

Sample 1
SMILES: COc1ccc(Cl)cc1NC(=O)Nc1cc(C)nc2ccccc12
Effect on: enzyme activity
Mode: inhibitor
Concentration: 0.5 µM
Reference: control
Measurement: remaining activity
Calcium/calmodulin-dependent protein kinase type 1B (PNCK, Homo sapiens, UniProt Q6P2M8): 98.7%
Ribosomal protein S6 kinase alpha-4 (RPS6KA4, Homo sapiens, UniProt O75676): 94%
Tyrosine-protein kinase TXK (TXK, Homo sapiens, UniProt P42681): 98.9%
Cyclin-dependent kinase 1, with cyclin A (CDK1, Homo sapiens, UniProt P06493): 104%
Cyclin-dependent kinase 9, with cyclin K (CDK9, Homo sapiens, UniProt P50750): 95.9%
cGMP-dependent protein kinase 2 (PRKG2, Homo sapiens, UniProt Q13237): 105%
Mitogen-activated protein kinase 1 (MAPK1, Homo sapiens, UniProt P28482): 90.4%
Dual specificity protein kinase CLK3 (CLK3, Homo sapiens, UniProt P49761): 97.5%
RAC-beta serine/threonine-protein kinase (AKT2, Homo sapiens, UniProt P31751): 94.9%
Discoidin domain-containing receptor 2 (DDR2, Homo sapiens, UniProt Q16832): 97.7%
Serine/threonine-protein kinase MARK2 (MARK2, Homo sapiens, UniProt Q7KZI7): 99.5%
Misshapen-like kinase 1 (MINK1, Homo sapiens, UniProt Q8N4C8): 88.7%
Dual specificity protein kinase CLK4 (CLK4, Homo sapiens, UniProt Q9HAZ1): 108%
Calcium/calmodulin-dependent protein kinase type IV (CAMK4, Homo sapiens, UniProt Q16566): 93.6%

Sample 2
SMILES: COc1ccc2[nH]c3c4[nH]c5ccc(OC)cc5c4c4c(c3c2c1)C(=O)NC4=O
Method: competitive binding panel
Concentration: 1 µM
Reference: vehicle
Measurement: remaining binding
Serine/threonine-protein kinase pim-1 (PIM1, Homo sapiens, UniProt P11309): 46%
Phosphatidylinositol 4,5-bisphosphate 3-kinase catalytic subunit alpha isoform (PIK3CA, Homo sapiens, UniProt P42336): 91%
Phosphatidylinositol 4-phosphate 3-kinase C2 domain-containing subunit beta (PIK3C2B, Homo sapiens, UniProt O00750): 94%
Serine/threonine-protein kinase DCLK3 (DCLK3, Homo sapiens, UniProt Q9C098); refers to: DCAMKL3: 19%
Phosphatidylinositol 4-phosphate 5-kinase type-1 alpha (PIP5K1A, Homo sapiens, UniProt Q99755): 100%
Phosphatidylinositol 4,5-bisphosphate 3-kinase catalytic subunit alpha isoform (PIK3CA, Homo sapiens, UniProt P42336, H1047L): 74%

Sample 3
SMILES: C=CC(=O)N1CCC[C@@H](n2nc(-c3ccc(Oc4ccccc4)cc3)c3c(N)ncnc32)C1
Effect on: enzyme activity
Mode: inhibitor
Concentration: 1 µM
Measurement: inhibition
Homeodomain-interacting protein kinase 4 (HIPK4, Homo sapiens, UniProt Q8NE63): 5%
Ephrin type-B receptor 3 (EPHB3, Homo sapiens, UniProt P54753): 0%
Cyclin-dependent kinase-like 2 (CDKL2, Homo sapiens, UniProt Q92772): 0%
Serine/threonine-protein kinase 16 (STK16, Homo sapiens, UniProt O75716): 0%
Serine/threonine-protein kinase Nek1 (NEK1, Homo sapiens, UniProt Q96PY6): 0%
RAC-alpha serine/threonine-protein kinase (AKT1, Homo sapiens, UniProt P31749): 4%
Phosphatidylinositol 4,5-bisphosphate 3-kinase catalytic subunit alpha isoform (PIK3CA, Homo sapiens, UniProt P42336, E545K): 2%

Sample 4
SMILES: CCC(=O)N[C@H]1CC[C@@H](C(=O)N(C)c2ccc(-c3nc4ccccc4o3)cc2)C1
Concentration: 10 µM
Measurement: inhibition
Histamine H3 receptor (HRH3, Homo sapiens, UniProt Q9Y5N1); binding, radioligand binding: -8.17%
5-hydroxytryptamine receptor 5A (HTR5A, Homo sapiens, UniProt P47898); ligand displacement: -1.85%
Beta-2 adrenergic receptor (ADRB2, Homo sapiens, UniProt P07550); binding, radioligand binding: 1.55%
D(2) dopamine receptor (DRD2, Homo sapiens, UniProt P14416); binding, radioligand binding: 14.3%
5-hydroxytryptamine receptor 6 (HTR6, Homo sapiens, UniProt P50406); binding, radioligand binding: 3.86%

For quick reference, copied from above (sample 4):
Histamine H3 receptor (HRH3, Homo sapiens, UniProt Q9Y5N1); binding, radioligand binding: -8.17%
5-hydroxytryptamine receptor 5A (HTR5A, Homo sapiens, UniProt P47898); ligand displacement: -1.85%
Beta-2 adrenergic receptor (ADRB2, Homo sapiens, UniProt P07550); binding, radioligand binding: 1.55%
D(2) dopamine receptor (DRD2, Homo sapiens, UniProt P14416); binding, radioligand binding: 14.3%
